Published values gathered from unrelated publications.
“And” joins repeats or separate records; there may be more than shown. Numbers after ± are the reported error.
UCHL1: Ubiquitin carboxyl-terminal hydrolase isozyme L1 (UCHL1, Homo sapiens, UniProt P09936)
UniProt Q99705, sequence (whole entry, looked up): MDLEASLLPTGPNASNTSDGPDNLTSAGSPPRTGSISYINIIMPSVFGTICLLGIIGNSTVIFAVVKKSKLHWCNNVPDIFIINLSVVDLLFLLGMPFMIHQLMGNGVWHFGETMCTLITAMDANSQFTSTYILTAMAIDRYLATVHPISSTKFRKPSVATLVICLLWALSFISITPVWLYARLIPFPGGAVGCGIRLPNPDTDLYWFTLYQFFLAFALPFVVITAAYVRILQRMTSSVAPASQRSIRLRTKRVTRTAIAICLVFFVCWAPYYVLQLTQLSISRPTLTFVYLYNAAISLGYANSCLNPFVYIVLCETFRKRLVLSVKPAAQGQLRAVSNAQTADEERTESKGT
UniProt Q06520, sequence (whole entry, looked up): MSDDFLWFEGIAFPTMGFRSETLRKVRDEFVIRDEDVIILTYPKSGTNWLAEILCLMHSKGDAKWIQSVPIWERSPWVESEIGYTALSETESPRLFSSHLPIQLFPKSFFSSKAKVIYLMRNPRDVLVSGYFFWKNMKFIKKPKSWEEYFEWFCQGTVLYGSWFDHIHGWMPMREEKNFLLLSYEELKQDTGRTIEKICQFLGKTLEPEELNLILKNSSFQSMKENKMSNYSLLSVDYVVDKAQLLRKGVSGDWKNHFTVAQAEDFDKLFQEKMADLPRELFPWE
UniProt P09936, sequence (whole entry, looked up): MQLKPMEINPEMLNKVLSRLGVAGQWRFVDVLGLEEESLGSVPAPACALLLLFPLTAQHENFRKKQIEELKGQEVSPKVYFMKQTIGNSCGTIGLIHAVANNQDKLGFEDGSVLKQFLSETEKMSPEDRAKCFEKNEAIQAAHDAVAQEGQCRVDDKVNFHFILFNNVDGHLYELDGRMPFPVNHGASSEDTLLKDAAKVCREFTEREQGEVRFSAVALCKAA
UniProt Q6JQN1, sequence (whole entry, looked up): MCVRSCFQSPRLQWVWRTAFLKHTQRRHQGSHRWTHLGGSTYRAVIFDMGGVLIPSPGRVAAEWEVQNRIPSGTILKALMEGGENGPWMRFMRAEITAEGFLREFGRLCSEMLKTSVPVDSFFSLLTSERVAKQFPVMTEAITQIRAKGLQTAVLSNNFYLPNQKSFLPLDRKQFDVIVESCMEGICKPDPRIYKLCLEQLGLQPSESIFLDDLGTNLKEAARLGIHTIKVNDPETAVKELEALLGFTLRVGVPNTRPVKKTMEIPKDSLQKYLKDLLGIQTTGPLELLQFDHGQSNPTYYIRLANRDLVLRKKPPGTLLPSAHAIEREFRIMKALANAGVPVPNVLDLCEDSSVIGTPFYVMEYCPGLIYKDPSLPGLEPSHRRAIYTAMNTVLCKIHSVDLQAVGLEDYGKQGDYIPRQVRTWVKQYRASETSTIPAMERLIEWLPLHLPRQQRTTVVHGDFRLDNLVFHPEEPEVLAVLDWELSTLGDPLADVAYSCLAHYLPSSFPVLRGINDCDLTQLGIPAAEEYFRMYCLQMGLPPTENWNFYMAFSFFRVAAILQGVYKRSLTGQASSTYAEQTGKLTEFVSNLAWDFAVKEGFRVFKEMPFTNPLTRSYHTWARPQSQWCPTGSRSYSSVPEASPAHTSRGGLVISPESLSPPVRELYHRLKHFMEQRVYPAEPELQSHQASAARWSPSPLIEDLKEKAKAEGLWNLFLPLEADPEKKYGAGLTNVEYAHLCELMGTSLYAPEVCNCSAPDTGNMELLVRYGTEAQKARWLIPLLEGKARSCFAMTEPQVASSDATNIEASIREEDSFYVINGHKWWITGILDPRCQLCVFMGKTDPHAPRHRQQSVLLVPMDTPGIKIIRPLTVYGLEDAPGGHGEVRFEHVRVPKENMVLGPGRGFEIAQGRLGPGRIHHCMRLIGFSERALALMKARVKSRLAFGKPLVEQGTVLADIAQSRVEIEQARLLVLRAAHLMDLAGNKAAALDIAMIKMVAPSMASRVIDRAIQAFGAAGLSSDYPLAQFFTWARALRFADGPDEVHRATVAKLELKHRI
UniProt P97612, sequence (whole entry, looked up): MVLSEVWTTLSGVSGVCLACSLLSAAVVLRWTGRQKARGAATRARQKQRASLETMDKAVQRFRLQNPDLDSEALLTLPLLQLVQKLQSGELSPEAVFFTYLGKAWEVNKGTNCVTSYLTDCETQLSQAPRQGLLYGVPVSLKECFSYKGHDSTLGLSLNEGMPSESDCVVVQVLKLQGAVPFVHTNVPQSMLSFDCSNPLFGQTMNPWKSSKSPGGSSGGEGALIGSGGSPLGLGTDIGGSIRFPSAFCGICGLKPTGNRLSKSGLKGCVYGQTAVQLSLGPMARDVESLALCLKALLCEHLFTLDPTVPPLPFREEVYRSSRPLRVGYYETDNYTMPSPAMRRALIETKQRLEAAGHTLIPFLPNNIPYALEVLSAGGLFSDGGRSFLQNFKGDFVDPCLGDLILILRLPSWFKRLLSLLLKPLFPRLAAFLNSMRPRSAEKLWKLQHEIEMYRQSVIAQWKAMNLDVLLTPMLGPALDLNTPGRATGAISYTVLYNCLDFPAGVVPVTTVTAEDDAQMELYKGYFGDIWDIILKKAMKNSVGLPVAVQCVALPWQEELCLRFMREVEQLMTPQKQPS
UniProt P48147, sequence (whole entry, looked up): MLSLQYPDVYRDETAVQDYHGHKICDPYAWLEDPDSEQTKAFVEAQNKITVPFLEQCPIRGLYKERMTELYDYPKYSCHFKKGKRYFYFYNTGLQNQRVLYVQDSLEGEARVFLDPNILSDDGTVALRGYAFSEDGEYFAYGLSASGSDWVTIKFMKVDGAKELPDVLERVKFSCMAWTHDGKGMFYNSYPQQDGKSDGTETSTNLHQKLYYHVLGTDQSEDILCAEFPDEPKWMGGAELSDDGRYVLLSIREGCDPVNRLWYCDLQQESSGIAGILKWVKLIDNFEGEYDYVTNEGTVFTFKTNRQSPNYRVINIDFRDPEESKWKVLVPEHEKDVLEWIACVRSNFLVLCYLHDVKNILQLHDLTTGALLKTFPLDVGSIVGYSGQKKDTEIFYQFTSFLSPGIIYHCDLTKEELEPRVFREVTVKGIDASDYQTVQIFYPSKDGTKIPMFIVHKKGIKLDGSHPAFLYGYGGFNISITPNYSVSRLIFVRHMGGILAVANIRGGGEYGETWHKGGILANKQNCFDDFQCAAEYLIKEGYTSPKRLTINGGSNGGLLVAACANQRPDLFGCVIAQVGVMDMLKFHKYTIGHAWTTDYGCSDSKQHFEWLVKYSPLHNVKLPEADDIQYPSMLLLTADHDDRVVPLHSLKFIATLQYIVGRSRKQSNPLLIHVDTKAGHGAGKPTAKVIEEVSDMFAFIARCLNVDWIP
UniProt P09690, sequence (whole entry, looked up): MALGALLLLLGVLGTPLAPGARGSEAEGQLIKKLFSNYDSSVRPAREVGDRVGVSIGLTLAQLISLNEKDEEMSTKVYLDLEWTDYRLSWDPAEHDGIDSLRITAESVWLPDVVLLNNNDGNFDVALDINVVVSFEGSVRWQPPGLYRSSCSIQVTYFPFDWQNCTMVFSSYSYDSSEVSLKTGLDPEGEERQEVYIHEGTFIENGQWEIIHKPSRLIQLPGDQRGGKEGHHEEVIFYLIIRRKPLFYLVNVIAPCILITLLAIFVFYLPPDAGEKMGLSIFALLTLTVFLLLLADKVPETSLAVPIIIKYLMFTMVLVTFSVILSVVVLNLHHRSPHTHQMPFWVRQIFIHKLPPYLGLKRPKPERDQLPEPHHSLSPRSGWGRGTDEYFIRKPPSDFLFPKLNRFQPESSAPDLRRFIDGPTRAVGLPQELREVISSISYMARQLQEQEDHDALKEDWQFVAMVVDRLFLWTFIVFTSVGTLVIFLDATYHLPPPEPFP
UniProt O42275, sequence (whole entry, looked up): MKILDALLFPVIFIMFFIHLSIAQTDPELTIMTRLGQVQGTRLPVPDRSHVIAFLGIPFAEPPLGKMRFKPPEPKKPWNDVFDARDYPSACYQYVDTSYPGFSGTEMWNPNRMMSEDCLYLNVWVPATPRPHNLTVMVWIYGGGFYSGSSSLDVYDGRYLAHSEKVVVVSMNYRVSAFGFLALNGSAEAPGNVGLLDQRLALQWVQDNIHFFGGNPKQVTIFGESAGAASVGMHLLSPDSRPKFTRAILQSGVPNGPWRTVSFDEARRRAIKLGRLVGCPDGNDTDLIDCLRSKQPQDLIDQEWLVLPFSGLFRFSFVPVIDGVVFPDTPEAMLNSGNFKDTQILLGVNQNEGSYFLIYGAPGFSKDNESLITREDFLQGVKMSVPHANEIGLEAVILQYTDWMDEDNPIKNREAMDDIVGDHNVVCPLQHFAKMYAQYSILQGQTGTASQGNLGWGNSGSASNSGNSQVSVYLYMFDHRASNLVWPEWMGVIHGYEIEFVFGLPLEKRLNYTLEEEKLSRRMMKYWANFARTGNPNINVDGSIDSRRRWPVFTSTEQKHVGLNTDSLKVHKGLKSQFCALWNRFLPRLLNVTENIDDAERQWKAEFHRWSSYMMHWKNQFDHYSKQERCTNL

Compound	target	assay	test system	setting	how to read	endpoint	value
CN(C(=O)n1cnc(-c2ccc[n+]([O-])c2)c1)C1CCCCC1	Lysosomal phospholipase A and acyltransferase (Pla2g15, Rattus norvegicus, UniProt Q675A5)	enzyme activity, ABPP	rat, brain	oral, 100 mg/kg/day, 28 days	relative to: vehicle	fold change	-3.5
Oc1ccc(/C=C/c2cc(O)cc(O)c2)cc1	O-methyltransferase (Sorghum bicolor, UniProt A0A1B6PFV1, W279A)	isothermal titration calorimetry	–	concentration not given, APO	–	binding stoichiometry N	0.82 ± 0.017 sites
CC12CCC(CC1)C(C)(C)O2	1,8-cineole 2-endo-monooxygenase (cinA, Citrobacter braakii, UniProt Q8VQF6, Y81F)	ITC	–	25 °C, Y81F enzyme variant	–	ΔH	12.8 ± 1 kcal/mol
O=C(Nc1cnccc1Cl)N1CCN(Cc2ccc3c(c2)OC(F)(F)O3)CC1	MCHR1 (Homo sapiens, UniProt Q99705)	radioligand binding	–	concentration not given	–	inhibition	2% and 12%
C[C@H]1CN(c2n[nH]c3nc(N[C@H]4CC[C@H](NS(=O)(=O)CCC(F)(F)F)CC4)ncc23)CCO1	ACAD10 (Homo sapiens, UniProt Q6JQN1)	inhibitor, Kinobeads competition profiling	–	0.16 µM	relative to: vehicle	relative abundance	1.14
COc1ccc2c(c[n+](C)c3c4cc5c(cc4ccc23)OCO5)c1OC	TRPM8 (Homo sapiens, UniProt Q7Z2W7)	antagonist	HEK293	5 µM	relative to: control	remaining activity	75.9 ± 2.96%
COc1cc(Nc2ncc(F)c(Nc3ccc4c(n3)NC(=O)C(C)(C)O4)n2)cc(OC)c1OC	GRK4 (Homo sapiens, UniProt P32298)	KINOMEscan	–	10 µM	–	inhibition	0%
CN1CCN(c2cc(-c3ccncc3)c(-c3ccc4ccccc4c3)nn2)CC1	ADRB2 (Homo sapiens, UniProt P07550)	agonist, FLIPR	–	12.5 µM	–	activation	-2.8%
[2H]c1c([2H])c([C@]2([2H])CCCN2C(=O)C(C)(C)Oc2ccc3cn[nH]c3c2)c([2H])c([2H])c1C([2H])([2H])[2H]	SIK3 (Homo sapiens, UniProt Q9Y2K2)	KINOMEscan	–	1 µM	relative to: DMSO control	remaining binding	80%
N#C[C@@H]1CC(F)(F)CN1C(=O)CNC(=O)c1ccnc2ccc(OCCCN3CCN(C(=O)CN4CCN(CC(=O)[O-])CCN(CC(=O)[O-])CC4)CC3)cc12.[18F-].[Al+3]	Fibroblast activation protein alpha (Rattus norvegicus, UniProt A0A9K3Y732)	PET	rat standard diet control	seventh week	relative to: myocardium over liver	SUVmax myocardium/liver ratio	1.91 ± 0.34
COc1cc(-c2[o+]c3cc(O)cc(O)c3cc2O[C@@H]2O[C@H](CO)[C@@H](O)[C@H](O)[C@H]2O)cc(OC)c1O	Albumin (ALB, Homo sapiens, UniProt P02768)	van't Hoff analysis	–	concentration not given	–	binding enthalpy change	-7.32 kJ/mol
CN(C(=O)n1cnc(-c2ccc[n+]([O-])c2)c1)C1CCCCC1	Faah (Rattus norvegicus, UniProt P97612)	probe labelling, inhibitor, competitive ABPP	rat brain membrane fraction	100 µM, together with: azido-FP probe	–	inhibition	99.5%
Nc1ncc(-c2nc(N3CCOCC3)nc(N3CCOCC3)n2)c(C(F)F)n1	Ribosomal protein S6 kinase alpha-2, N-terminal kinase domain (RPS6KA2, Homo sapiens, UniProt Q15349)	KINOMEscan	–	10 µM	–	remaining binding	44%
O=C(c1ccc(Cl)cc1)N1CCN2C(=O)N(OC(=O)N3CCOc4ccccc43)C(=O)C2C1 (centres unmarked)	PREP (Homo sapiens, UniProt P48147)	enzyme activity, inhibitor, MS-based ABPP	SW-620 conditioned medium	10 µM, 1 h, 37 °C	relative to: compound over DMSO, lower = stronger inhibition	median ratio	1.09
O=C(O)C(F)(F)C(F)(F)C(F)(F)C(F)(F)C(F)(F)C(F)(F)C(F)(F)F	SLC22A11 (Homo sapiens, UniProt Q9NSA0)	substrate	HEK293 stably expressing	10 µM	–	linear uptake duration	2.5 min
CC(=O)SCCNC(=O)CCNC(=O)[C@H](O)C(C)(C)COP(=O)(O)OP(=O)(O)OC[C@H]1O[C@@H](n2cnc3c(N)ncnc32)[C@H](O)[C@@H]1OP(=O)(O)O	gltA (Thermoplasma acidophilum, UniProt P21553, D318G)	steady-state turnover, substrate	–	100 µM, pH 8, 20 °C, together with: oxaloacetate 400 µM	–	kcat	0.0015 s⁻¹
Clc1ccc(COc2ccccc2CNCc2ccncc2)cc1	aacA-aphD, AAC(6')-Ie domain (Staphylococcus aureus, UniProt P0A0C1)	neomycin acetylation, inhibitor	–	together with: neomycin	–	highest concentration without inhibition	> 200 µM
CC1(CCl)CN1S(=O)(=O)c1ccccc1 (centres unmarked)	UCHL1	covalent, intact protein LC-MS	–	12.5 µM	–	labelling	11.5%
Cc1nn(C)cc1-c1nc2c(N3CCN(Cc4ccc(Cl)cc4)CC3)c(Cl)cnc2[nH]1	SIK1 (Homo sapiens, UniProt P57059)	binding, KINOMEscan	–	1 µM	–	remaining binding	100%
O=C(Nc1cccnn1)N1CCC(=Cc2cccc(Oc3ccc(C(F)(F)F)cn3)c2)CC1	HIPK2 (Homo sapiens, UniProt Q9H2X6)	kinase activity, inhibitor	–	10 µM, together with: myelin basic protein substrate	–	inhibition	1%
O=C(CCl)C1CCC2(CC1)CC2	UCHL1	covalent, intact protein LC-MS	–	12.5 µM	–	labelling	12.3%
Oc1c(Cl)cc(-c2ccc(F)cc2)cc1Cl	SULT2A1 (Homo sapiens, UniProt Q06520)	substrate	–	pH 7.0, 37 °C, together with: PAPS 200 µM	–	Vmax	30 nmol/min/mg and 29.7 nmol/min/mg
O=C(O)COP(=O)(O)O	TPI1 (Saccharomyces cerevisiae, UniProt P00942, Y208A)	enzyme activity, competitive inhibitor, GPDH/NADH-coupled	–	pH 7.5, 25 °C, ionic strength 0.1 NaCl, together with: glyceraldehyde 3-phosphate substrate	relative to: mutant over wild type	Ki ratio	67
O=C(O)c1cccc(C(O)P(=O)(O)O)n1 (centres unmarked)	Metallo-beta-lactamase type 2 (Serratia marcescens, UniProt P52699)	inhibitor	–	together with: nitrocefin	–	dissociation half-life	23 ± 1.3 min
COc1ccc(N2C(=O)N(c3c(C)cccc3Cl)Cc3cnc(Nc4ccc(C5CCN(C)CC5)cc4OC)nc32)nc1	BRSK1 (Homo sapiens, UniProt Q8TDC3)	kinase activity	–	0.5 µM	–	inhibition	10%
CCOC(=O)COc1ccc2c(=O)c3ccccc3oc2c1	ache (Electrophorus electricus, UniProt O42275)	enzyme activity	–	0.84 µM, together with: substrate 1.73 mM	higher = faster reaction	reaction velocity	0.0022 a.u.
O=C(NCc1ccccc1)[C@@H]1CS[C@H]2CS[C@H](CS)N21	sfhI (Serratia fonticola, UniProt Q9RMI1)	activity class	–	concentration not given	–	activity	inactive
C[N+]1(C)CCN(c2cccc(Cl)c2)CC1.[I-]	Nicotinic acetylcholine receptor alpha1/beta1/epsilon/delta (Mus musculus, UniProt P02716+P04756+P09690+P20782)	ion current, inhibitor, two-electrode voltage clamp	Xenopus oocytes	30 µM, after co-application, unit not given, together with: ACh 30 µM	relative to: ACh alone	ACh response	0.694 ± 0.186
CC[C@@H](C)[C@@H](NC(=O)[C@@H](Cc1ccc(O)cc1)NC(=O)[C@H]1CCCN1C(=O)[C@@H](CCCNC(=N)N)NC(=O)[C@H](N)Cc1c[nH]cn1)C(=O)N[C@H](C)C(=O)N[C@H](Cc1c[nH]cn1)C(=O)N[C@H](CCCNC(=N)N)C(=O)N[C@H](CCCCNC(=O)c1cccc(S(=O)(=O)F)c1)C(=O)N[C@H](Cc1ccc(O)cc1)C(=O)N[C@H](CO)C(=O)N[C@H](Cc1ccccc1)C(N)=O	Transferrin receptor protein 1 (Tfrc, Mus musculus, UniProt Q62351)	flow cytometry	DC2.4	2 h, pH 6, replicate 3, unit not given	relative to: 0 h	surface TFRC expression	0.896

Excerpt of the above:
Compound	target	assay	test system	setting	how to read	endpoint	value
CC(=O)SCCNC(=O)CCNC(=O)[C@H](O)C(C)(C)COP(=O)(O)OP(=O)(O)OC[C@H]1O[C@@H](n2cnc3c(N)ncnc32)[C@H](O)[C@@H]1OP(=O)(O)O	gltA (Thermoplasma acidophilum, UniProt P21553, D318G)	steady-state turnover, substrate	–	100 µM, pH 8, 20 °C, together with: oxaloacetate 400 µM	–	kcat	0.0015 s⁻¹
O=C(Nc1cccnn1)N1CCC(=Cc2cccc(Oc3ccc(C(F)(F)F)cn3)c2)CC1	HIPK2 (Homo sapiens, UniProt Q9H2X6)	kinase activity, inhibitor	–	10 µM, together with: myelin basic protein substrate	–	inhibition	1%
O=C(c1ccc(Cl)cc1)N1CCN2C(=O)N(OC(=O)N3CCOc4ccccc43)C(=O)C2C1 (centres unmarked)	PREP (Homo sapiens, UniProt P48147)	enzyme activity, inhibitor, MS-based ABPP	SW-620 conditioned medium	10 µM, 1 h, 37 °C	relative to: compound over DMSO, lower = stronger inhibition	median ratio	1.09
